Measurements pooled from the literature.
Each numbered part is a random draw from the data of one study; scales do not carry over between parts. “And” joins repeats or separate records; there may be more than shown.
Sequence of UniProt Q99640 (whole entry, looked up): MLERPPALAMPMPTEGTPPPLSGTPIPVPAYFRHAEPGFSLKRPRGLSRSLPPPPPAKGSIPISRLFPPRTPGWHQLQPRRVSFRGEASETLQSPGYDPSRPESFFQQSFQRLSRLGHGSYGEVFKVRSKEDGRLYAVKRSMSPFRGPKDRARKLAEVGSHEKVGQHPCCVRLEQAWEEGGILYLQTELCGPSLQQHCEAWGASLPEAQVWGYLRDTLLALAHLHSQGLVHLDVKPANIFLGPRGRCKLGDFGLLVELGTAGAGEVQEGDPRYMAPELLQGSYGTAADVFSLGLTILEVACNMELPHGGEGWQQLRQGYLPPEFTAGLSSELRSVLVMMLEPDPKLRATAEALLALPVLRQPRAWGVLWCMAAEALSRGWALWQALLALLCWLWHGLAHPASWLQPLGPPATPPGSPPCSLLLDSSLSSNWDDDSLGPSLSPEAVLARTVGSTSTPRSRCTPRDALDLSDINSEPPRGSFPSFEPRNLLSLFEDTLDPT

Study 1
Structure (SMILES): Cc1ccc(O)c(C)c1-c1cnc2[nH]c(-c3cnc(N4CCC5(CC4)CC(N4CCN(c6ccc(N[C@H]7CCC(=O)NC7=O)cc6F)CC4)CO5)nc3)cc2c1C#N (single isomer, unassigned)
target or system	observed	technique	measured	tested at	notes	inhibition
HCC1569		automated immunoblotting	CDK1 phospho-Thr14	concentration not given	8 h after washout	57.7%
NCI-H1568	cell growth			370.37 nM		15.1%
Membrane-associated tyrosine- and threonine-specific cdc2-inhibitory kinase (PKMYT1, Homo sapiens, UniProt Q99640)	binding	HTRF		370.37 nM		99.8% and 97.3%
LN-229	cell proliferation			10000 nM		89.2%

Study 2
Compound: C[C@@H]1CN(c2ccc(-c3cc(C(=O)NCCOCCOCCOCCOCCOCCOCCNC(=O)/C=C/c4[nH]cc(C(=O)N[C@@H](CC(N)=O)c5ccc(F)c(Cl)c5)c4-c4ccc(Cl)cc4F)ccc3F)cc2NC(=O)c2ccc(F)cc2C(F)(F)F)C[C@H](C)N1C
Observed: thermal unfolding
Technique: differential scanning fluorimetry
Tested at: 5.5 µM
Direction: higher = more unfolded
DCAF1: DDB1- and CUL4-associated factor 1 (DCAF1, Homo sapiens, UniProt Q9Y4B6)
Sequence of UniProt Q9Y4B6 (whole entry, looked up): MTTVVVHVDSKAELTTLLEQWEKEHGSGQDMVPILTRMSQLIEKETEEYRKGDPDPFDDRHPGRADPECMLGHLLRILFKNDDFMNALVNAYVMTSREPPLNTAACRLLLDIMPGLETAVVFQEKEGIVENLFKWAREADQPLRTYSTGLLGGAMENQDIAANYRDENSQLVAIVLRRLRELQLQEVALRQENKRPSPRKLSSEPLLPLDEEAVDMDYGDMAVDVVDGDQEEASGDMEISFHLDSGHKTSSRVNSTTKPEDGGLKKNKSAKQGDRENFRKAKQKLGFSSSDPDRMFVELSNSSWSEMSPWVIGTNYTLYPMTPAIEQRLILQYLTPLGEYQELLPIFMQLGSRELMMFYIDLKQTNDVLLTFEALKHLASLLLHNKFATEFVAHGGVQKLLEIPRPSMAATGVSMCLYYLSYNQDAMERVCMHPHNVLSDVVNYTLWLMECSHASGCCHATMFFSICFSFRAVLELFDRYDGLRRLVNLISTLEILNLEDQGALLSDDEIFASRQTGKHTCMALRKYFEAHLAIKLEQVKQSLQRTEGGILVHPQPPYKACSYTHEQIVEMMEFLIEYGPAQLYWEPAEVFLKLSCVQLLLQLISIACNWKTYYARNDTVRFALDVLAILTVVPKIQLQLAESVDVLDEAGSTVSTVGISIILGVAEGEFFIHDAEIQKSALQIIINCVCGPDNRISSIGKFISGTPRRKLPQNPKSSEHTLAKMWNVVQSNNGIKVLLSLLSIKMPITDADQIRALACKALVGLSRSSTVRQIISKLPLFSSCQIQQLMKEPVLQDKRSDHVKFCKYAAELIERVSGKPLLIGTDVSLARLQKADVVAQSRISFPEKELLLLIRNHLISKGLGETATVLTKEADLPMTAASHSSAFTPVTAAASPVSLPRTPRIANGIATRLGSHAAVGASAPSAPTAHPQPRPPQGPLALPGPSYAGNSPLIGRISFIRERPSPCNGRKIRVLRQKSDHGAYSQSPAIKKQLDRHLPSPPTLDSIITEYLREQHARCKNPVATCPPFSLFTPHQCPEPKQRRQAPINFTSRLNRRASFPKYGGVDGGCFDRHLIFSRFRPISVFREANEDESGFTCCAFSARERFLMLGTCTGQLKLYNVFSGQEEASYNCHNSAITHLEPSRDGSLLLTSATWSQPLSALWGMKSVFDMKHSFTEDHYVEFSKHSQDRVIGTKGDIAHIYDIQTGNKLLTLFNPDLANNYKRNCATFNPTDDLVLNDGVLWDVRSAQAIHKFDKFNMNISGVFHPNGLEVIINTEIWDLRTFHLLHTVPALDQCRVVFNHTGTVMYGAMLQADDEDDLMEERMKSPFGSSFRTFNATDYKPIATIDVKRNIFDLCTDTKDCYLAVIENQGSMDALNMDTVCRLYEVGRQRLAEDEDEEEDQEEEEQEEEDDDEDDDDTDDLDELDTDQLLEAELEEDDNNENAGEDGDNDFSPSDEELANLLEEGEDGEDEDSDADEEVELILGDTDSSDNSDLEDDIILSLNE
WDR5: WD repeat-containing protein 5 (WDR5, Homo sapiens, UniProt P61964)
target	temperature	SYPRO Orange fluorescence
DCAF1	48.2 °C	16700 a.u.
DCAF1	71.01 °C	47200 a.u.
WDR5	87.41 °C	58700 a.u.
DCAF1	64.21 °C	54000 a.u.
WDR5	65.81 °C	17200 a.u.
DCAF1	59.61 °C	45700 a.u.
WDR5	39.2 °C	14000 a.u.

Study 3
SMILES: NC/C(=C\F)COc1cc(Cn2c(=S)[nH]c(=O)c3[nH]cnc32)cc(C(F)(F)F)c1
Target: Myeloperoxidase (MPO, Homo sapiens, UniProt P05164)
Sequence of UniProt P05164 (whole entry, looked up): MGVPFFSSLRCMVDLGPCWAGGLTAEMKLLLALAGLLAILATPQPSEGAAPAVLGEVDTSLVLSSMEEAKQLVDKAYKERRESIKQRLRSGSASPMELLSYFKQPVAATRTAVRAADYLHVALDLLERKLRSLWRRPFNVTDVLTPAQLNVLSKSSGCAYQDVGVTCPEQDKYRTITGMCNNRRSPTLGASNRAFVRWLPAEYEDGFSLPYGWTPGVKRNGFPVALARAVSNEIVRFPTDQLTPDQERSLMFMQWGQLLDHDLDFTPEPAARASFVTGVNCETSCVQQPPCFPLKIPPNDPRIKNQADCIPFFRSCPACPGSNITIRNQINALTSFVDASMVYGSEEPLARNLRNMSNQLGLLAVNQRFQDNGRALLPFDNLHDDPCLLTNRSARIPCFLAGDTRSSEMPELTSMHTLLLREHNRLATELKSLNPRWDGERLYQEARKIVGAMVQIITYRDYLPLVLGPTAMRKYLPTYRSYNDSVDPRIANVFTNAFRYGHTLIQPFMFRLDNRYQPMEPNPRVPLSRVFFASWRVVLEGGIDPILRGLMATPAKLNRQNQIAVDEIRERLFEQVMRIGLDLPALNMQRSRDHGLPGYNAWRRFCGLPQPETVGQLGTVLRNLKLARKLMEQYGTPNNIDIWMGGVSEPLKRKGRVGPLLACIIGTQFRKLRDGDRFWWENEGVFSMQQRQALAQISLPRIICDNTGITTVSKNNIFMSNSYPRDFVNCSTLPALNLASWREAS
Observed: enzyme activity
Action: inhibitor
Technique: fluorescence
tested at	inhibition [%]
13.7 nM	48.1
5 µM	100
500 pM	-6.48
4.6 nM	22.7
0.5556 µM	100
2.3 nM	17.2

Other studies, line by line
Organism: Arabidopsis thaliana
Strain: Col-0
SMILES	tested at	notes	hypocotyl length
CN1C(=O)C(O)(C(=O)O)Oc2cc(F)ccc21 (stereo not drawn)	12.5 µg/mL	seed germination, single repetition	1.96 cm and 1.97 cm and 1.9 cm and 2 cm and 1.93 cm
O=C(O)C1Oc2cc(F)ccc2N(Cc2ccccc2)C1=O (stereo not drawn)	100 µg/mL	seed germination, single repetition	1.55 cm and 1.54 cm and 1.52 cm and 1.53 cm
CC(C)=CCN1C(=O)C(O)(C(=O)O)Oc2cc(F)ccc21 (stereo not drawn)	100 µg/mL	seed germination, repetition mean	1.43 cm
COc1ccc2c(c1)OC(O)(C(=O)O)C(=O)N2Cc1ccccc1 (stereo not drawn)	12.5 µg/mL	seed germination, repetition mean	1.84 cm
